Results pooled from the literature.
Protocols differ between the studies behind these lines. Several values in a cell are separate wells, animals, samples, runs or records. ± marks the error that the study gave. ≈ marks a conversion by molar mass, not a printed value.

CNC(C)C(=O)O (racemic)  relative parasite number (Cryptosporidium parvum; image-based; HCT-8; 1 mM, 24 h post-infection; relative to: PBS): 0.99 ± 0.076
CN[C@H](CC(C)C)C(=O)N[C@H]1C(=O)N[C@@H](CC(N)=O)C(=O)N[C@H]2C(=O)N[C@H]3C(=O)N[C@H](C(=O)N[C@H](C(=O)O)c4cc(O)cc(O)c4-c4cc3ccc4O)[C@H](O)c3ccc(c(Cl)c3)Oc3cc2cc(c3O[C@@H]2O[C@H](CO)[C@@H](O)[C@H](O)[C@H]2O[C@H]2C[C@](C)(N)[C@H](O)[C@H](C)O2)Oc2ccc(cc2Cl)[C@H]1O  isolates inhibited (coagulase-negative staphylococci; concentration not given, MIC ≤1 µg/mL): 20.8%
NC(=O)c1ncn([C@@H]2O[C@H](CO)[C@@H](O)[C@H]2O)n1  inactivation activity (Pepper mild mottle virus; 500 µg/mL): 56% and 55% and 58%
Cc1cccc(C)c1N(CC(=O)Nc1ccc(-c2ncon2)cc1)C(=O)C1CCS(=O)(=O)CC1  selectivity index (human alphaherpesvirus 1; primary human fibroblasts, K26 GFP; CC50 capped at 10.00 µM; relative to: CC50 over IC50): > 100
CN[C@H](CC(C)C)C(=O)N[C@H]1C(=O)N[C@@H](CC(N)=O)C(=O)N[C@H]2C(=O)N[C@H]3C(=O)N[C@H](C(=O)N[C@H](C(=O)O)c4cc(O)cc(O)c4-c4cc3ccc4O)[C@H](O)c3ccc(c(Cl)c3)Oc3cc2cc(c3O[C@@H]2O[C@H](CO)[C@@H](O)[C@H](O)[C@H]2O[C@H]2C[C@](C)(N)[C@H](O)[C@H](C)O2)Oc2ccc(cc2Cl)[C@H]1O  MIC50 (Streptococcus pyogenes; ATCC 13813; 1 strain): 0.5 µg/mL (≈ 0.345 µM)
COC(=O)[C@@H](CCSC)NCc1cc2ccccc2nc1SC  growth (Pseudomonas aeruginosa; 16 µg/mL, together with: pentamidine 100 µM; relative to: control): 97.8%
CCn1c(=O)c(-c2cc[nH]n2)cc2c(C)nc(N)nc21  viral titre (Coxsackievirus B4; viral replication; HeLa, CVB4-7; concentration not given, 20 h): decreased
Nc1ccn([C@@H]2O[C@H](CO)[C@@H](O)C2(F)F)c(=O)n1  IC50 (human alphaherpesvirus 1; live-cell GFP imaging; primary human keratinocytes, K26 GFP): 130 nM
CO[C@H]1[C@H](O[C@H]([C@H]2O[C@@H](n3ccc(=O)[nH]c3=O)[C@H](O)[C@@H]2O)[C@H](NCCCNC(=O)[C@@H](NC(=O)[C@@H](NC(=O)N[C@H](C(=O)O)C(C)C)[C@@H]2CCN=C(N)N2)[C@@H](O)C(C)C)C(=O)O)O[C@H](CN)[C@H]1O  MIC50 (Cryptococcus gattii; alamar blue; C17): > 35 µg/mL
CN[C@H](CC(C)C)C(=O)N[C@H]1C(=O)N[C@@H](CC(N)=O)C(=O)N[C@H]2C(=O)N[C@H]3C(=O)N[C@H](C(=O)N[C@H](C(=O)O)c4cc(O)cc(O)c4-c4cc3ccc4O)[C@H](O)c3ccc(c(Cl)c3)Oc3cc2cc(c3O[C@@H]2O[C@H](CO)[C@@H](O)[C@H](O)[C@H]2O[C@H]2C[C@](C)(N)[C@H](O)[C@H](C)O2)Oc2ccc(cc2Cl)[C@H]1O  MBC (Staphylococcus epidermidis; broth microdilution; methicillin-resistant isolates): 4 µg/mL
N=C(N)c1ccc(OCc2cc(Br)cc(COc3ccc(C(=N)N)cc3)c2)cc1  FICI (Escherichia coli; checkerboard; mcr-2 polymyxin-resistant; unit not given, together with: rifampicin; lower = stronger synergy): 0.25
CNC(C)C1CCC(N)C(OC2C(N)CC(N)C(OC3OCC(C)(O)C(NC)C3O)C2O)O1 (stereo not shown)  MIC (Salmonella enterica serovar Infantis; broth microdilution; clinical isolate RKI-No 277/14): > 8 µg/mL
C[C@@H]1OC(=O)[C@H](Cc2ccccc2)[C@H]1O  EC50 (Daphnia magna; immobilisation, semi-static water exposure; 48 h): > 9.1 µg/mL
Cc1cn([C@H]2C[C@H](O)[C@@H](COP(=O)(O)OP(=O)(O)OP(=O)(O)O)O2)c(=O)[nH]c1=O  z-scored log2 fold change (binding, equilibrium dialysis LC-MS; 5 µM, thermostabilized A2AR-BRIL construct; relative to: no-protein control, direction not given): -7.24
CCCCCCc1ccc(Oc2ccccc2Cl)c(O)c1  CFU reduction (Mycobacterium tuberculosis; mouse, rapid infection model, spleen; oral, 200 mg/kg once daily, co-solvent formulation): 1.47 log10 CFU
COc1ccnc(C(N)=O)c1O  EC50 (Daphnia magna; immobilisation, semi-static water exposure; 48 h): > 10 µg/mL
COc1ccc(-c2nc(N3CCOCC3)c3sc(CN(C)c4ncc(C(=O)NO)cn4)cc3n2)cn1  selectivity index (human alphaherpesvirus 1; K26 GFP, 3D skin equivalent, submerged; relative to: CC50 over IC50): > 6.9
CC(=O)O  relative parasite number (Cryptosporidium parvum; image-based; HCT-8; 1 mM, 24 h post-infection; relative to: PBS): 1.03 ± 0.121
[N-]=[N+]=N[C@]1(CO)O[C@@H](n2ccc(N)nc2=O)[C@@H](F)[C@@H]1O  EC50 (dengue virus 2; viral replication, high-content imaging; Huh7.5, New Guinea C): 68 nM
COC(=O)[C@H](Cc1ccc(O)cc1)NCc1cc2ccccc2nc1SC  growth (Pseudomonas aeruginosa; 32 µg/mL, together with: pentamidine 100 µM; relative to: control): 52.1%
Cc1cc(OC(C)C)ccc1C(=O)C(C)(C)NC(=O)c1sccc1C  inhibition (Botrytis cinerea; mycelial growth; B05.10; 0.03 µg/mL): 75.6 ± 3.6%
CC1(C)S[C@@H]2[C@H](NC(=O)[C@H](N)c3ccccc3)C(=O)N2[C@H]1C(=O)O  MIC (Pseudomonas aeruginosa; clinical isolate RKI-No_496/15): > 16 µg/mL
N=C(N)c1ccc(OCc2cc(COc3ccc(C(=N)N)cc3)cc(-c3ccccc3)c2)cc1  FICI (Escherichia coli; checkerboard; BW25113; synergy at FICI ≤0.5, unit not given, together with: novobiocin; lower = stronger synergy): ≤ 0.039
CC(=O)N1CCC(C(=O)N2CCN3C(=O)c4cc(-c5ccccc5)ccc4NC(=O)C3C2)CC1 (stereo not shown)  median lifespan (Caenorhabditis elegans; N2; 6.25 µM): 17 days
CO[C@H]1/C=C/O[C@@]2(C)Oc3c(C)c(O)c4c(O)c(c(/C=N/N5CCN(C)CC5)c(O)c4c3C2=O)NC(=O)/C(C)=C\C=C\[C@H](C)[C@H](O)[C@@H](C)[C@@H](O)[C@@H](C)[C@H](OC(C)=O)[C@@H]1C  bacterial load reduction (Mycobacterium tuberculosis; Mus musculus, lung; 10 mg/kg, suspended in PBS, monotherapy): ~0.5 log10 CFU
Cc1nc(N(C)C(=O)Cc2ccc(-c3ccccn3)cc2)sc1S(N)(=O)=O  selectivity index (human alphaherpesvirus 1; K26 GFP, 3D skin equivalent, air-liquid; relative to: CC50 over IC50): > 52.6
N=C(N)c1ccc(OCCC(CCOc2ccc(C(=N)N)cc2)c2ccccc2)cc1 (stereo not shown)  FICI (Escherichia coli; checkerboard; W3110; unit not given, together with: rifampicin; lower = stronger synergy): 0.063
CC(C)n1ncc2c(C(=O)NCC3(C)CNC3)cc(C3CC3)nc21  plaque reduction (Enterovirus D68; viral replication; RD, US/MO/14-18947; 100 nM): 7.43% and 0%
Nc1nc(-c2ccccc2)nc2[nH]nc(Nc3ccc(C(F)(F)F)cc3)c12  clinical score (coxsackievirus B3; 31-1-93, NMRI mice, CVB3 chronic myocarditis; oral, 100 mg/kg twice daily, day 5, dosed days 0 to 6, score scale 0 to 7; direction not given): 0.1
O=c1c(-c2nc3ccccc3s2)cc2c(n1NS(=O)(=O)c1ccccc1)CCCC2  reduction (Coxsackievirus B4; viral replication, plaque reduction; BGM cells; non-toxic concentration): 50%
Nc1ncnc2c1ncn2[C@@H]1O[C@H](COP(=O)(O)OP(=O)(O)OP(=O)(O)O)[C@@H](O)[C@H]1O  z-scored log2 fold change (binding, equilibrium dialysis LC-MS; 5 µM, thermostabilized A2AR-BRIL construct; relative to: no-protein control, direction not given): -0.441
C=CC(=O)N1CC/C(=C\c2ccc(F)c([N+](=O)[O-])c2)C(=O)/C(=C/c2ccc(F)c([N+](=O)[O-])c2)C1  IC50 (human alphaherpesvirus 1; live-cell GFP imaging; primary human keratinocytes, K26 GFP): 4430 nM
Cc1cc(Nc2ccc(S(F)(F)(F)(F)F)cc2)n2nc(C(C)(F)F)nc2n1  lag phase (Tlag) (Plasmodium falciparum; microscopy; human malaria patients; 400 mg, mean): 8.78 h
CC(=O)N[C@@H](CC(=O)O)C(=O)O  relative parasite number (Cryptosporidium parvum; image-based; HCT-8; 1 mM, 24 h post-infection; relative to: PBS): 0.97 ± 0.141
CC(=O)NC[C@H]1CN(c2ccc(N3CCOCC3)c(F)c2)C(=O)O1  MBC (Staphylococcus aureus; broth microdilution; vancomycin-resistant VRS10): 32 µM
COC(=O)[C@H](Cc1c[nH]c2ccccc12)NCc1cc2ccccc2nc1SC  growth (Pseudomonas aeruginosa; 8 µg/mL, without pentamidine; relative to: control): 99.3%
O=C(/C=C\n1cnc(-c2cc(C(F)(F)F)cc(C(F)(F)F)c2)n1)NNc1ccccn1  IC50 (human alphaherpesvirus 1; viral replication, GFP signal; K26 GFP, 3D skin equivalent, air-liquid; 48 h): 150 nM
CCCCCCc1ccc(Oc2ccccc2C)c(O)c1  CFU reduction (Mycobacterium tuberculosis; mouse, rapid infection model, spleen; 50 mg/kg twice daily, SMEDDS formulation): 0.2 log10 CFU
O=C(Nc1ccc([N+](=O)[O-])cc1Cl)c1cc(Cl)ccc1O  IC50 (human alphaherpesvirus 1; live-cell GFP imaging; primary human keratinocytes, K26 GFP): 9900 nM
CCCc1nn(C)c2c(=O)[nH]c(-c3cc(S(=O)(=O)N4CCN(C)CC4)ccc3OCC)nc12  inhibition (Cryptosporidium parvum; parasite growth, immunofluorescence imaging; HCT-8, Iowa; 6 µM): -6.04% and -2.9%

For quick reference, copied from above:
N=C(N)c1ccc(OCc2cc(COc3ccc(C(=N)N)cc3)cc(-c3ccccc3)c2)cc1  FICI (Escherichia coli; checkerboard; BW25113; synergy at FICI ≤0.5, unit not given, together with: novobiocin; lower = stronger synergy): ≤ 0.039
CC(=O)N1CCC(C(=O)N2CCN3C(=O)c4cc(-c5ccccc5)ccc4NC(=O)C3C2)CC1 (stereo not shown)  median lifespan (Caenorhabditis elegans; N2; 6.25 µM): 17 days
CO[C@H]1/C=C/O[C@@]2(C)Oc3c(C)c(O)c4c(O)c(c(/C=N/N5CCN(C)CC5)c(O)c4c3C2=O)NC(=O)/C(C)=C\C=C\[C@H](C)[C@H](O)[C@@H](C)[C@@H](O)[C@@H](C)[C@H](OC(C)=O)[C@@H]1C  bacterial load reduction (Mycobacterium tuberculosis; Mus musculus, lung; 10 mg/kg, suspended in PBS, monotherapy): ~0.5 log10 CFU
